Experimental data of several laboratories.
Parts stem from different laboratories: compare values within a part only.

Study 1
Target: Probable WRKY transcription factor 33, C-terminal DNA-binding domain (WRKY33, Arabidopsis thaliana, UniProt Q8S8P5, residues 346-449)
Technique: DNA-protein interaction ELISA
Molecule type: double-stranded DNA, one strand shown
Medium: in vitro, bacterial lysate
Tested at: not given
Notes: whole dsDNA probe, crude lysate protein
Baseline: highest signal in screen
Direction: higher = stronger binding
Construct (chain): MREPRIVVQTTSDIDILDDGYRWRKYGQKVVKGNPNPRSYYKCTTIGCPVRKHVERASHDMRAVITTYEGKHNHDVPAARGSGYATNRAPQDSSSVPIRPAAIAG
| Oligonucleotide | relative absorbance |
| --- | --- |
| AAAAAACTCTTAAGGAAAGTTCCGACAAAA | 41.3 % of maximum |
| AAAAAAAAGTGCCAACGTTCAAGAAAAA | 42.1 % of maximum |
| AAAAAAAGTTGTACTTATTATACTTTAAAA | 37.4 % of maximum |

Study 2
Target: Prothrombin, mature alpha-thrombin (F2, Homo sapiens, UniProt P00734)
Technique: aptamer microarray, sandwich
Molecule type: DNA with 2'F-ANA
Medium: in vitro
Tested at: 200 nM
Notes: whole 15-mer aptamer, many near background
With: Cy3 exosite-II aptamer, 400 nM
Direction: higher = stronger binding
| Oligonucleotide | mean fluorescence intensity [a.u.] |
| --- | --- |
| GGTTGGTGTGGTTGG (2'F-ANA at 1 2 4 5 7 8 9 10 11 12 13 14) | 52.1 |
| GGTTGGTGTGGTTGG (2'F-ANA at 3 5 6 13 14 15) | 50.1 |
| GGTTGGTGTGGTTGG (2'F-ANA at 3 5 7 8 10 11) | 61.9 |

Study 3
Target: Sal-like protein 4, full length isoform A (SALL4, Homo sapiens, UniProt Q9UJQ4, residues 1-1053)
Sequence of UniProt Q9UJQ4 (whole entry, looked up): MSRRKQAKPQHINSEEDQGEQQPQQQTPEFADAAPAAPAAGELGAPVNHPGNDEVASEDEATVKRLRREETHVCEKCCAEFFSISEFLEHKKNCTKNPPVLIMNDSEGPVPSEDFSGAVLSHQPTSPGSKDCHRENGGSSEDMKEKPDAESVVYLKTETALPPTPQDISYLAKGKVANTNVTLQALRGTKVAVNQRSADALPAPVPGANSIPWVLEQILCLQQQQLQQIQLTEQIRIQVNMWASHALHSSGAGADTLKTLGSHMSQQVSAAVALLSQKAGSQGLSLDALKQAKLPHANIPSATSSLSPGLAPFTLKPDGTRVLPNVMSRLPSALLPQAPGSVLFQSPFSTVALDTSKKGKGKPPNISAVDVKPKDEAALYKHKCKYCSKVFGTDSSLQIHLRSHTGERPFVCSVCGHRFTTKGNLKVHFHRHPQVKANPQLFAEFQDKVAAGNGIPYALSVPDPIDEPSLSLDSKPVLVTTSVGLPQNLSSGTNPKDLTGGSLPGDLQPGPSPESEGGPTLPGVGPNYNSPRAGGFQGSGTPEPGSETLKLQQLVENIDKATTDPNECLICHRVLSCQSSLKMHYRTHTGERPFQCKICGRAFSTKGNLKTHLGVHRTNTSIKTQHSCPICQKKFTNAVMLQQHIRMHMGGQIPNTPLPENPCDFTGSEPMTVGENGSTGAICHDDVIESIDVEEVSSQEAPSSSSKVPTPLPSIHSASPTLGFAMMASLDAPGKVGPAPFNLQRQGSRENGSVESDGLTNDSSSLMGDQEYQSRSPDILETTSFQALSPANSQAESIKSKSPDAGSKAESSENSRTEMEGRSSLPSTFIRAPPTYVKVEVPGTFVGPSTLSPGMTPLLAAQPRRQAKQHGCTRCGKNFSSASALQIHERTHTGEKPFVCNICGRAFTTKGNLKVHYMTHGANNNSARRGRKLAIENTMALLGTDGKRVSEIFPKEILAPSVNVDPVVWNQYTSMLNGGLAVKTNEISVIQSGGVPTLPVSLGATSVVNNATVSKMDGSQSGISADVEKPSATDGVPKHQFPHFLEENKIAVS
Technique: universal PBM
Molecule type: double-stranded DNA, one strand shown
Medium: in vitro
Tested at: 600 nM
Notes: 8-mer, flanks averaged, mean of replicates
Direction: higher = stronger binding
| Oligonucleotide | E-score |
| --- | --- |
| AGTTTTTC | 0.141 |
| ACGAGGGC | -0.243 |
| GACCGATC | -0.229 |

Further values, each from its own experiment
| Substance | target | assay | system | setting | scale | measurement | result |
| --- | --- | --- | --- | --- | --- | --- | --- |
| PhoQ, residues 284 288 289 292 302 303 SLSVQF | PhoP, residues 12 14 15 18 19 TPLRH (Escherichia coli, UniProt P23836) | Sort-seq, item: YFP reporter | E. coli | PhoQ-PhoP variant library, with: 10 µM Mg2+ | baseline: high Mg2+ state, higher = stronger signaling | fold induction | 7.51 |

For quick reference, copied from above (study 1):
| Oligonucleotide | relative absorbance |
| --- | --- |
| AAAAAAAAGTGCCAACGTTCAAGAAAAA | 42.1 % of maximum |
